# Measured values from different studies.
# Each numbered part is a random draw from the data of one study; scales do not carry over between parts.

# Sample 1 — technique: RNAcompete; form: RNA; medium: in vitro; tested at: 20 nM; setting: 7-mer, probes averaged, single round; relative to: mean of 7-mers; direction: higher = stronger binding
# Target: PABPC1L2, full length, GST fusion (mouse, UniProt A0ABA7IW68)
# Target sequence (chain): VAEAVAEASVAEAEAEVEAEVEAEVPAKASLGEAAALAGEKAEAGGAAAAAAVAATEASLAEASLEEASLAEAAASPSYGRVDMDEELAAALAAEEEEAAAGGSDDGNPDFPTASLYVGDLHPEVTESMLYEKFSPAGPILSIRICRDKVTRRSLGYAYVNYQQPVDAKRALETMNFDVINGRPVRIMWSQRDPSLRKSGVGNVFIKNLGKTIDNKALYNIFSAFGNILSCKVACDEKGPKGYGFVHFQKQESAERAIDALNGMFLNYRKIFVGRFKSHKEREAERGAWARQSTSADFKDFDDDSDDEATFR
Oligonucleotide,7-mer Z-score
AAACAAU,4.49
CCGAGCA,-0.104
CGGCCAC,-0.108
UCCGCGA,-0.291
CAUCCCU,-0.327
ACCCGCA,-0.168
CUUGAGG,-0.157
GUACCGC,-0.213
UUAGCCU,-0.353
GACUCUC,-0.32
GAGUACA,-0.0518
ACGGGUA,0.332
UCUUAAC,-0.389
GUAGGGA,0.207
AAUCAUC,-0.0192
CCUCAAU,-0.224
GUGAGGU,-0.171
CACAGAC,-0.0228
UGUCAUA,-0.295
CGCCCAG,-0.405
GCUCGUA,-0.0953
CUGACGC,-0.383
ACGCGAC,-0.0373
AACGCUC,-0.00289
GGUAUCA,-0.0554

# Sample 2 — technique: protein binding microarray; form: double-stranded DNA, one strand shown; medium: in vitro; tested at: not given; relative to: not given; direction: higher = stronger binding
# Target: Histone acetyltransferase KAT6A, winged helix 2, GST fusion (KAT6A, Homo sapiens, UniProt Q92794, residues 85-181)
# Setting: 8-mer, flanks averaged, mean of 2 arrays, mostly near background
# Target sequence (chain): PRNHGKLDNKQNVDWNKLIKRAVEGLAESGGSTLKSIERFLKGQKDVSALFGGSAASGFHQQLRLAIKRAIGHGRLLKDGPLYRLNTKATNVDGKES
Oligonucleotide,E-score
AATACGGC,0.106
CACACTGG,0.0224
CGAAACAA,0.0515
CTTTGGTA,-0.0982
GAGTGGGA,0.00974
AGTCAGTA,0.0289
CAGGTCGA,0.153
ATTCTCAC,0.0302
CAAGAAAA,0.191
CCCCATCG,0.0407
GAATTGTC,0.0724

# Sample 3 — technique: universal PBM; form: double-stranded DNA, one strand shown; medium: in vitro; tested at: not given; direction: higher = stronger binding
# Target: Sal-like protein 4, full length isoform B (SALL4, Homo sapiens, UniProt Q9UJQ4-2, residues 1-616)
# Setting: 8-mer, flanks averaged, mean of replicates
Oligonucleotide,E-score
AATGGTGT,0.139
CAAGCTTC,0.0762
CCCGTACG,-0.219
AACCCAAA,0.0374
TAGTTCAA,0.00125
GCGCACGA,-0.269
ACCGGCCC,-0.337
CGGACGCA,-0.275
GCTTATGA,0.192
CACATCCA,0.0396
GTCTTACA,0.113
AACTTGCT,-0.0417
AGACTCCC,-0.214
CCAGACCA,-0.156
CATGGGCG,-0.313
CATTTGGA,0.0872
ACGTCAAC,0.0313

# Sample 4 — technique: EMSA with sequencing; form: double-stranded DNA, one strand shown; medium: in vitro; tested at: 10 and 20 nM; relative to: negative control set to 0; direction: higher = stronger binding
# Target: Hepatocyte nuclear factor 3-alpha (Foxa1, Mus musculus, UniProt P35582, residues 1-468, full length assumed)
# UniProt P35582, sequence (whole entry, looked up): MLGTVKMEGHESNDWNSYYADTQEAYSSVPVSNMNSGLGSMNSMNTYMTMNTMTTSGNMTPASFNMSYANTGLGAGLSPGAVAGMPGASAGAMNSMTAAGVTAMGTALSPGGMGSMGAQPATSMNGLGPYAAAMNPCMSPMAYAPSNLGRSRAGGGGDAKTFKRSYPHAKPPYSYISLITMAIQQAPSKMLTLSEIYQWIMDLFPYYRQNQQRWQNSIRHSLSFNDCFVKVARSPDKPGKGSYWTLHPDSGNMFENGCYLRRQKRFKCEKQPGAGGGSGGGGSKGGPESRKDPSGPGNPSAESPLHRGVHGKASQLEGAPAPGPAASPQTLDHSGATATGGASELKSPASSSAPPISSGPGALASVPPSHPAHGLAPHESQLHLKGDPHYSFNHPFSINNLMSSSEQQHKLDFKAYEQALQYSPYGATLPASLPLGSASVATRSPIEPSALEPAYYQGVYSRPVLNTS
# Setting: whole designed probe, mean of two concentrations, ends assumed
Oligonucleotide,normalised bound fraction [ratio]
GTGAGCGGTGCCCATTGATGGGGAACATCTTCCCCCTCTTCCTTGCCCCACCAGCTCACCTACGGGGGTTATTTGCAGATAGGAAAATAAATAAAGCCGGCATTCGTTAACCCTCTTCTGGCGCAAACTGCTGTTTGCTCTGCATCTAACATGGTCCTTACGCGACGCCAGGCTCCGGGAGAGCAAAGCACCGTGTCAGGCGCATGATCCGGGGTGGCCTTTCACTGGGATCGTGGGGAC,0.355
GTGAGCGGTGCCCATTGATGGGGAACGTGCTGAATGCATGTTATTTGCTTTCCTTCAAAAATACGTAACTAGGAAGAGCAGAGTACTATGTAATTTTGCTAATCACATGCTTTACTAAGTAAACAAAGAATACTTTAGGATAGATTTTATTTAAAGTCATCACCTTTCATAATCATTTTATTCTGCATCATAATTTCTTAATCAGGTAATGTAATTATATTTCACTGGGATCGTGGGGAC,0.564
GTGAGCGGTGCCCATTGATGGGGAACGACTCCTACAGTATGTAATTTACATCAATAAAGACGTAAAAATCCTTCCTTTTGTCTAACATCTGTAGGGCTATGACTTACTCTGATGTCCTTGTTTACTCTAGCGTGGAGTCAACGAGCTTATTATTTGATCTAGTCTCCATGATGGCTTGTTTGTTTACAGCTGAGCAAGTTTACATAGGGCAAAATTAAATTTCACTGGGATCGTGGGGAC,0.478
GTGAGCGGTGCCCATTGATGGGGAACAGGACATAAGCCAGCCCAGATAACAAGCTAAGAAATTTGTTTAGGCAGAAGGGGGAGCTAGAGCAAATCAGTTCACATGCTCTCTCTGTCTCCAGATTACACTGTAGTATTACAGGTGTTAGACGGTAGCAAGTCCTAGAGAAGTGTGTTGTGTAAGTCACTGTCATTCAACATTGTAATCTGCTAGGTAAAATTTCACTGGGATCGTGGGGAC,0.0391
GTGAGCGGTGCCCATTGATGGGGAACATCTTCCCCCTCTTCCTTGCCCCACCAGCTCACCTACGGGGGTTATTTGCAGATAGGAAAATAAATAAAGCCGGCATTCGTTAACGCAGTTCACGCGCATACTGCTGTTTGCTCTGCATCTAACATGGTCCTTACGCGAGGCGTGGCTCCGGGAGAGCAAAGCACCGTGTCAGGCGCATGATCCGGGGTGGCCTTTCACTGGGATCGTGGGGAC,0.364

# A few entries again (sample 1):
Oligonucleotide,7-mer Z-score
UCCGCGA,-0.291
CAUCCCU,-0.327
ACCCGCA,-0.168
CUUGAGG,-0.157
GUACCGC,-0.213
UUAGCCU,-0.353
GACUCUC,-0.32
